Measurements pooled from the literature.
Every numbered part comes from another study and shows a few of its results, in no order. Changes are numbered by the printed parent chain.

Block 1
Target: RNA binding protein fox-1 homolog 2, RRM domain, GST-SBP tag (RBFOX2, Homo sapiens, UniProt O43251-10, residues 100-194)
Technique: RNA Bind-n-Seq
Form: RNA
Matrix: in vitro
Concentration: 365 nM
Notes: natural RNA segment, single round, ends assumed
Relative to: no-protein control
Direction: higher = stronger binding
Residues (chain): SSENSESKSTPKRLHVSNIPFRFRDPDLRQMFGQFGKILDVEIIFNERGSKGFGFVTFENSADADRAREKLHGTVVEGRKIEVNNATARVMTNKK
Sequence | RBNS enrichment (R)
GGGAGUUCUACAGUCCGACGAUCCUACUGUCUGUUGGUUCCAAUAUUCUCCCACUGCUAGAGCUUCCUGUUAAGCAAGUGUGAUCUGCAACAUUUUUUCAACUUUUGCUAGCACUGUAUACUAUUGCAUUCUUUGGAAUUCUCGGGUGCCAA | 1.36
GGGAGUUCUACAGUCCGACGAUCGAGGACCUAUCCCAAAUGUGGAAUUGACUGCCUAUGCCAAGUCCCUGGAAAAGGAGCUUCAGUAUUGUGGGGCUCAUAAAACAUGAAUCAAGCAAUCCAGCCUCAUGGGAUGGAAUUCUCGGGUGCCAA | 0.501
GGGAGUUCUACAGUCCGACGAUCUAAAAUUCCAGUAAUUUCCAAGAAUGUGGUGUUGGUACUUUCCUAAUAAACCGAUAACGUACCUUGACUCUGUCGCCUUUUCUUUUAUGAGCGCUAGGGCACUAAACCUCUGGAAUUCUCGGGUGCCAA | 0.349
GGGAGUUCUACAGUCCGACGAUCGUAUAAUUUUGAGGUAUAGCUUGAACUCCUAGAACAAGAGUUAAAAGUUCUUUUUAGCUCAUUCACAAUCACUUGUGUGUUAAGUGUUAAUAUCUGUCAUGAACCUGCCAUGGAAUUCUCGGGUGCCAA | 1.44
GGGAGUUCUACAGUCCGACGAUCAUAUAUGUAUGUAUAUAUAUAUAUGAAAAUAUAUAUAUAUAUGAAAAAUAAAGCUUAAUUGUCCCAGAAUCAUACAUUGCUUUUUAUUCAUCAUGGGUACCACAGGAACCUGGAAUUCUCGGGUGCCAA | 2.06
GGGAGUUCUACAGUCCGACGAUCCCUCUUCUUAUAAACGCCCUUCUAAUAAACUUUUCACCGUAAAGCUCCUGAGACAGGAGCACAGUCUAUUCCCUGCUGCUGUCUCUGGGGAAAGGGAUUUACAAGGGGACUGGAAUUCUCGGGUGCCAA | 0.313
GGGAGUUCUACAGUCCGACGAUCAUAUAUAUAAAUAUUAAAUAUAUACAUUUCUCUAUGUGGGCGGGUAUUUUAGAAGGGUUCUCUUCAGCAACUGUAAUACUAACCAGUGUUGCCAACCCCUCCCCACCCCCUGGAAUUCUCGGGUGCCAA | 0.724
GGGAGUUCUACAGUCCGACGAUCCUGGUUUUAUUUGUCUCUGGUCCACAAGAGUGUUUUGGCAACUGCCUGGAGCUUGCAUGUUGGGACAAAUCAGGACAAGUGCCAGCAGCCUGAAUAUUUCCAGUGCCUACUGGAAUUCUCGGGUGCCAA | 4.85

Block 2
Target: UBE2Q1 UBC core domain (UniProt Q7Z7E8)
Technique: yeast two-hybrid
Matrix: yeast
Notes: mostly zero background
Relative to: not given
Direction: higher = stronger interaction
B1: TRIM63 RING domain (UniProt Q969Q1); chain PMENLEKQLICPICLEMFTKPVVILPCQHNLCRKCANDIFQAANPYWTSRGSSVSMSGGRFRCPTCRHEVIMDRHGV
B2: PHF21A RING domain (UniProt Q96BD5); chain SPTSTDGDIHEDFCSVCRKSGQLLMCDTCSRVYHLDCLDPPLKTIPKGMWICPRCQDQMLKKEEAIPW
B3: RNF170 RING domain (UniProt Q96K19); chain TRQQFYTDMYCPICLHQASFPVETNCGHLFCGACIIAYWRYGSWLGAISCPICRQTVTLLLTVF
B4: RC3H2 RING domain (UniProt Q9HBD1); chain QAAQWTEFLSCPICYNEFDENVHKPISLGCSHTVCKTCLNKLHRKACPFDQTAINTDIDVL
B5: TRIM69 RING domain (UniProt Q86WT6); chain VIQDITMELHCPLCNDWFRDPLMLSCGHNFCEACIQDFWRLQAKETFCPECKMLCQYNNCTF
B6: ARK2C RING domain (UniProt Q6ZSG1); chain EGEESDTDEKCTICLSMLEDGEDVRRLPCMHLFHQLCVDQWLAMSKKCPICRVDIETQLGAD
B7: CUL9 RING domain (UniProt Q8IWT3); chain AQAVPVRPDHCPVCVSPLGCDDDLPSLCCMHYCCKSCWNEYLTTRIEQNLVLNCTCPIADCPAQPTGAFIR
B8: UHRF2 RING domain (UniProt Q96PU4); chain CGGDPEKKCHSCSCRVCGGKHEPNMQLLCDECNVAYHIYCLNPPLDKVPEEEYWYCPSCKTDSSEVVKAGER
Construct (chain): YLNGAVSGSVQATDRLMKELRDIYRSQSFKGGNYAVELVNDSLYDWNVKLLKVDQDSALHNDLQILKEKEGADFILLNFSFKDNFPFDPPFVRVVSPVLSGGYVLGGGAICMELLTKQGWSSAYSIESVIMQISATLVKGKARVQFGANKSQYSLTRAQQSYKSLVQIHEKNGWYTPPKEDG
Sequence | lacZ reporter activity
QLRRLQEERTCKVCMDKEVSIVFIPCGHLVVCKDCAPSLRKCPICRSTIKGTVRTF (BIRC3 RING domain (UniProt Q13489)) | 0
B1 (TRIM63 RING domain) | 0
FPEHFVKSISCQICEHILADPVETNCKHVFCRVCILRCLKVMGSYCPSCRYPCFPTDLES (RAG1 RING domain (UniProt P15918)) | 0
B2 (PHF21A RING domain) | 0
B3 (RNF170 RING domain) | 0
B4 (RC3H2 RING domain) | 0
PEELQAMDNVCIICREEMVTGAKRLPCNHIFHTSCLRSWFQRQQTCPTCRMDVLRASLPA (SYVN1 RING domain (UniProt Q86TM6)) | 0
B5 (TRIM69 RING domain) | 0
B6 (ARK2C RING domain) | 0
B7 (CUL9 RING domain) | 0
VTLSLTLPITCHICLGKVRQPVICINNHVFCSICIDLWLKNNSQCPACRVPITPENPCK (OBI1 RING domain (UniProt Q5W0B1)) | 0
B8 (UHRF2 RING domain) | 0
QLQDIKEQTMCPVCLDRLKNMIFLCGHGTCQLCGDRMSECPICRKAIERRILLY (MIB1 RING domain (UniProt Q86YT6)) | 0

Block 3
Target: CCNE1, cyclin fold, Cln2 fusion (human)
Technique: yeast growth competition, sequencing
Matrix: yeast
Notes: strong parent motif
Relative to: not given
Direction: higher = stronger binding
Starting sequence: CDKN1A docking peptide (human); SKACRRLFGPVDS
Substitution | normalised enrichment score
SKACRRLLGPVDS [F8L] | 0.0468
STACRRLFGPVDS [K2T] | 5.73
SKACRRLFGPADS [V11A] | 6.11
SKACTRLFGPVDS [R5T] | 0.275
SKACRRLFGPMDS [V11M] | 5.44
SKACRRLFGPVIS [D12I] | 4.37
SYACRRLFGPVDS [K2Y] | 4.51
SKACRRLFGQVDS [P10Q] | 4.48
SVACRRLFGPVDS [K2V] | 3.72
SKACRRLFMPVDS [G9M] | 5.77
SHACRRLFGPVDS [K2H] | 5.77
SKAKRRLFGPVDS [C4K] | 4.98
SKACPRLFGPVDS [R5P] | -0.0228
SKACRILFGPVDS [R6I] | 4.23
SKACRRLFGHVDS [P10H] | 4.37
SKALRRLFGPVDS [C4L] | 0.879
SKACRPLFGPVDS [R6P] | 0.408
SKACRRLFGPVWS [D12W] | 3.16
SKACRRLSGPVDS [F8S] | 0.204
SKACRRLGGPVDS [F8G] | 0.285
SKACRRLFGPPDS [V11P] | 5.34
SKSCRRLFGPVDS [A3S] | 0.886
SKAPRRLFGPVDS [C4P] | 0.236
SKACRRMFGPVDS [L7M] | 0.467
SKACRRHFGPVDS [L7H] | 0.165

Block 4
Target: ABI1, truncated, D143A, DHFR fusion (Arabidopsis thaliana)
Technique: DHFR PCA, deep sequencing
Matrix: yeast
Notes: methotrexate growth selection, single substitutions
Together with: (+)-ABA 0.39 µM
Relative to: wild-type fitted maximum
Direction: higher = stronger binding
Starting sequence: PYL1, truncated, DHFR fusion (Arabidopsis thaliana); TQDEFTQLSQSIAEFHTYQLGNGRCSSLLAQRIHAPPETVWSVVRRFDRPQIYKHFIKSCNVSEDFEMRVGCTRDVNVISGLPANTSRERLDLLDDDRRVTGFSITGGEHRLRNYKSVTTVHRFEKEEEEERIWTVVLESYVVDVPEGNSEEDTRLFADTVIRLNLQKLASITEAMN; partner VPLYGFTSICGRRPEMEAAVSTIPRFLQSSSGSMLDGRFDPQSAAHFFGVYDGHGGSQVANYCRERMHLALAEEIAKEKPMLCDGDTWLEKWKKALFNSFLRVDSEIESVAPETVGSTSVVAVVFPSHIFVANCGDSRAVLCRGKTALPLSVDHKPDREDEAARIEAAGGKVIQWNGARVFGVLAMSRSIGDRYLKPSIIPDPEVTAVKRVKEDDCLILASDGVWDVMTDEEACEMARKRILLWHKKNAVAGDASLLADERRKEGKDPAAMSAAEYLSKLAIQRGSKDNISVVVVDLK
Substitution | relative binding score [%]
T39M | 46.1
F66E | 14.9
N165A | 8.66
T154D | -9.02
V121T | -11.8
E109D | 104
Y53H | 10.3
S87K | 5.76
Q51N | 2.81
P146C | 7.68
E89V | -5.03
D3N | 32
Q31S | 0.613
F124M | 69.7
R46T | -3.53
R74I | -9.18
R155G | -28.6
A158K | -13.5
T73G | -6.66
S104N | 4.79
V100W | -4.7
D144S | -12.9

Excerpt of the above (block 3):
Substitution | normalised enrichment score
SHACRRLFGPVDS [K2H] | 5.77
SKAKRRLFGPVDS [C4K] | 4.98
SKACPRLFGPVDS [R5P] | -0.0228
SKACRILFGPVDS [R6I] | 4.23
SKACRRLFGHVDS [P10H] | 4.37
SKALRRLFGPVDS [C4L] | 0.879
SKACRPLFGPVDS [R6P] | 0.408
SKACRRLFGPVWS [D12W] | 3.16
SKACRRLSGPVDS [F8S] | 0.204
